# Results gathered from unrelated publications.
# Every numbered part comes from another study and shows a few of its results, in no order.
# Chain of UniProt P43250 (whole entry, looked up): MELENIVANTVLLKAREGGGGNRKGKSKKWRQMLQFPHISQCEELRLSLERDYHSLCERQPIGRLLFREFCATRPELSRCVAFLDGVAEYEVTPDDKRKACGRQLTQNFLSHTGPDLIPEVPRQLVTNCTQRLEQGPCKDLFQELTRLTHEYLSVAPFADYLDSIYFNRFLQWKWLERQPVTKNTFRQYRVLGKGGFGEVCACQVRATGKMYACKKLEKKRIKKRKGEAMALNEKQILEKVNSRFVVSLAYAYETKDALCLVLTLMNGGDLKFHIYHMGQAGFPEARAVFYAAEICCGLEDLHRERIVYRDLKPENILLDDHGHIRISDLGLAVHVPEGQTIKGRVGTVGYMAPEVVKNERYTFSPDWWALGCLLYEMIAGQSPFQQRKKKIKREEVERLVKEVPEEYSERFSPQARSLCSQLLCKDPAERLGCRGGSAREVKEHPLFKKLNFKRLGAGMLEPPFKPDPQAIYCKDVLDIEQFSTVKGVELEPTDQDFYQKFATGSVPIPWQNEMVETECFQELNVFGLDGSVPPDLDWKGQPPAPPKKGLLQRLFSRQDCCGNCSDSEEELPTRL
# Chain of UniProt Q15375 (whole entry, looked up): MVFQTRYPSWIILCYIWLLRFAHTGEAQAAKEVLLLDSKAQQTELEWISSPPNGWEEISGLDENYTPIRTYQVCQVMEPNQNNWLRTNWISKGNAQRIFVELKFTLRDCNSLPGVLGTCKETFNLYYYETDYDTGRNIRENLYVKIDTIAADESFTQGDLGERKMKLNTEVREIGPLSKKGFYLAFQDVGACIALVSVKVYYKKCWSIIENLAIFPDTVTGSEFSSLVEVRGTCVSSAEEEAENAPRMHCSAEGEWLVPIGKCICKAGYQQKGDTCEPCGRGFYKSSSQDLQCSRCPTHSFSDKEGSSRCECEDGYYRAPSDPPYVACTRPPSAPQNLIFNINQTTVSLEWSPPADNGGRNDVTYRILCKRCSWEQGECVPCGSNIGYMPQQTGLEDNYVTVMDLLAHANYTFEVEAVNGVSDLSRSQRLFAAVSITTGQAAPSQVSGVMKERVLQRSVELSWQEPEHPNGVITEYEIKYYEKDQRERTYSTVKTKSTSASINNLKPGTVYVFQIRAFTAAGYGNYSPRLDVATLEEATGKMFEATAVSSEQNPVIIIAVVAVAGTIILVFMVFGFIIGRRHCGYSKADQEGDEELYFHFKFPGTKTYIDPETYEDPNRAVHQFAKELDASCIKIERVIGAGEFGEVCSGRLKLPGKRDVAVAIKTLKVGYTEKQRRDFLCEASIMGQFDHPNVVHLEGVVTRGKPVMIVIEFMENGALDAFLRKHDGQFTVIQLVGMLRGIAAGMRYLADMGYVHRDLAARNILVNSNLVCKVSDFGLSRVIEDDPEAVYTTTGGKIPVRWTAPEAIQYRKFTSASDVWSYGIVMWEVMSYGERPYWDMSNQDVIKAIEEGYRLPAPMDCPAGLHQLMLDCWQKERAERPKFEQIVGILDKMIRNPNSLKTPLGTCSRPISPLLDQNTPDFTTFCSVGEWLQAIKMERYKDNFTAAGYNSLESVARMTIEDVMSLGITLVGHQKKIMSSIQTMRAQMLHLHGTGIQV
# Chain of UniProt Q6XUX3 (whole entry, looked up): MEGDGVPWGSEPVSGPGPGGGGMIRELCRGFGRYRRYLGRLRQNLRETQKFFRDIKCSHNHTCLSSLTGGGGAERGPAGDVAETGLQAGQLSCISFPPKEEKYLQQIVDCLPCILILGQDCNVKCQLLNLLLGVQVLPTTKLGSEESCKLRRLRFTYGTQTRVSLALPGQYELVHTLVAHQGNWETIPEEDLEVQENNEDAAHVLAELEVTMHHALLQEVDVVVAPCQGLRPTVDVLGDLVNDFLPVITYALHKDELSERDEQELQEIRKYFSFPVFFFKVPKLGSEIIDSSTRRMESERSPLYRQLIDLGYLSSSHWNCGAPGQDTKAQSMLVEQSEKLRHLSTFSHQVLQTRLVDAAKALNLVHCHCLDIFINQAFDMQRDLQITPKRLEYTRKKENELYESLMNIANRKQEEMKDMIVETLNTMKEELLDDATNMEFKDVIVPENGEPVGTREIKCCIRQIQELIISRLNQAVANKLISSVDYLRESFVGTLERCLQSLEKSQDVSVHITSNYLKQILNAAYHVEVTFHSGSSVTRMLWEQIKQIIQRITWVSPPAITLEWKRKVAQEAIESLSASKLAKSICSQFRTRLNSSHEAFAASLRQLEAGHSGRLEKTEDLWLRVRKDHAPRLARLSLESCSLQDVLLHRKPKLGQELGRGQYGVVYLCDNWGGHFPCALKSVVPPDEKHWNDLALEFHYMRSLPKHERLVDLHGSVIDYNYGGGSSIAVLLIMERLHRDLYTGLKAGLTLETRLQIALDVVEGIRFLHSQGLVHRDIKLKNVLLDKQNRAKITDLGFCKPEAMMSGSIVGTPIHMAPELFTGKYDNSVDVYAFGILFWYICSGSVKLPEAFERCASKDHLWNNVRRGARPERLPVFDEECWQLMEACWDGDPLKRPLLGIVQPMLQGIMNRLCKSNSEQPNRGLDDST
# Chain of UniProt O60285 (whole entry, looked up): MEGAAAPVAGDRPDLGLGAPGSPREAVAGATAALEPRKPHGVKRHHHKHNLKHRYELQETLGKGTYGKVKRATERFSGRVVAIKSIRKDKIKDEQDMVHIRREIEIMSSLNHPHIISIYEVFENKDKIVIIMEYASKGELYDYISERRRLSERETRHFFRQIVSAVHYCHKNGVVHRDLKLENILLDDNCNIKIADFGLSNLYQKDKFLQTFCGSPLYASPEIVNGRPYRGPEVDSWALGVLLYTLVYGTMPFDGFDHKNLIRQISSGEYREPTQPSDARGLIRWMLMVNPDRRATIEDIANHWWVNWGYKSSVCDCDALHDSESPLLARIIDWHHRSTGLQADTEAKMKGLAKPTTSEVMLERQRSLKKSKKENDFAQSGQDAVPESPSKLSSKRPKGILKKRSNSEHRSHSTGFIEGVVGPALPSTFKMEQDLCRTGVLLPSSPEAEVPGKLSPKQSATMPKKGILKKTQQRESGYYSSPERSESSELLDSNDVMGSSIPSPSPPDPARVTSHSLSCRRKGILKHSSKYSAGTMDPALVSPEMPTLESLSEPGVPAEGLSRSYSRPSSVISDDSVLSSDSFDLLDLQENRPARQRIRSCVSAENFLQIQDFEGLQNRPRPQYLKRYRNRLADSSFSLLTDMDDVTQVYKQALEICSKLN
# Chain of UniProt Q9UPE1 (whole entry, looked up): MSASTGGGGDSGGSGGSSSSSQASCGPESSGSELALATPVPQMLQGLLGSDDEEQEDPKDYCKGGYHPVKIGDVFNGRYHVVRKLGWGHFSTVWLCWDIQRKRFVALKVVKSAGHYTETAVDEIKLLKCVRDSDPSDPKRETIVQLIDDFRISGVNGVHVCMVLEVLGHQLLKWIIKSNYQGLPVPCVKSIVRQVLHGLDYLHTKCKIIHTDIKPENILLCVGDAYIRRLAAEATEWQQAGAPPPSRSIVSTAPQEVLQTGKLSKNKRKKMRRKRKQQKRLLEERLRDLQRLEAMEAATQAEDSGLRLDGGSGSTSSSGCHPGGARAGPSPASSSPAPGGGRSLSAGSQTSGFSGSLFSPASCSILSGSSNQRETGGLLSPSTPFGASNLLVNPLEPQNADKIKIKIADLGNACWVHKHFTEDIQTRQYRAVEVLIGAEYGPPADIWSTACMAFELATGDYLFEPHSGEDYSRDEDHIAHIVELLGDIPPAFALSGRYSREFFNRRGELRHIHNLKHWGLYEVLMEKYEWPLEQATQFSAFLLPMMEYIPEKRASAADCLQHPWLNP

# Set 1
# SMILES: COc1ccc(COc2ccc(Cc3cnc(N)nc3N)cc2OC)cc1
# Observed: enzyme activity
# Mode: inhibitor
# Tested at: 0.5 µM
# Relative to: control
target,remaining activity
"GRK6 (Homo sapiens, UniProt P43250)",99.8%
"MYLK (Homo sapiens, UniProt Q15746)",95.7%
"BMX (Homo sapiens, UniProt P51813)",93.4%
"RPS6KA1 (Homo sapiens, UniProt Q15418)",92.7%
"GRK2 (Homo sapiens, UniProt P25098)",96.1%
"PRKCG (Homo sapiens, UniProt P05129)",102%
"GSK3A (Homo sapiens, UniProt P49840)",108%
"PIM2 (Homo sapiens, UniProt Q9P1W9)",107%
"SRPK3 (Homo sapiens, UniProt Q9UPE1)",102%
"EPHA7 (Homo sapiens, UniProt Q15375)",101%
"Aurora kinase C (AURKC, Homo sapiens, UniProt Q9UQB9)",97.5%
"PAK2 (Homo sapiens, UniProt Q13177)",95.3%
"NUAK1 (Homo sapiens, UniProt O60285)",106%
"SGK1 (Homo sapiens, UniProt O00141)",97.9%

# Set 2
# Target: Beta-1 adrenergic receptor (ADRB1, Homo sapiens, UniProt P08588)
# Chain of UniProt P08588 (whole entry, looked up): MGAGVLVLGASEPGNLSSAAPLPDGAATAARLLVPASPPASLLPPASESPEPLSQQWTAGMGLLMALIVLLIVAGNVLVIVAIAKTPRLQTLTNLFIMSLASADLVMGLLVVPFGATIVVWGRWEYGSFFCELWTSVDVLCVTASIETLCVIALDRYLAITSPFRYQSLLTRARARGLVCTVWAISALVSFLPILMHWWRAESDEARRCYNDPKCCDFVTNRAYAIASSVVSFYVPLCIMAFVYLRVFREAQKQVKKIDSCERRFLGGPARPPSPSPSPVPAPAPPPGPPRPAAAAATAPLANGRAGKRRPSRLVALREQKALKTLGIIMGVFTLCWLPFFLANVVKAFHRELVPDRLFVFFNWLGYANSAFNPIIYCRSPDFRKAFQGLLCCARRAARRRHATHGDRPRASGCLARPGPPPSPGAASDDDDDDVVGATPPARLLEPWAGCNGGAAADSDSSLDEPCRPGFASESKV
# Mode: agonist
SMILES,Emax [%]
COc1ccccc1N1CCN(CC(O)COc2cccc3ccccc23)CC1 (centres unmarked),89.3
CN(C)CCN(Cc1ccc(-c2ccc(CNCCc3ccccc3)cc2)cc1)C(=O)CCC1CCCC1,40.6
C=CCc1ccccc1OCC(O)CNC(C)C (centres unmarked),99.7
COc1ccccc1N1CCN(CCCCNC(=O)c2ccc(-c3ccc(C(C)=O)cc3)cc2)CC1,72.2
COc1ccccc1N1CCN(CCC(=O)Nc2ccc3c(c2)OCCO3)CC1,33.5
CC(C)NC[C@H](O)COc1ccc(O)cc1,93.7
CCCC(=O)c1cc(F)ccc1OCC(O)CNC(C)(C)C (centres unmarked),91.2
CN1CCc2cc(O)c(O)cc2C1Cc1ccc(O)c(O)c1 (centres unmarked),84

# Set 3
# Structure (SMILES): O=C(Nc1cccnn1)N1CCC(=Cc2cccc(Oc3ccc(C(F)(F)F)cn3)c2)CC1
# Observed: cell-free assay
# Method: competition with immobilised ligand
# Tested at: 1 µM
target,remaining binding
"FLT3 (Homo sapiens, UniProt P36888, ITD)",100%
"MAP2K6 (Homo sapiens, UniProt P52564)",100%
"EGFR (Homo sapiens, UniProt P00533, A750P/del747-749)",100%
"CAMK1 (Homo sapiens, UniProt Q14012)",100%
"NEK4 (Homo sapiens, UniProt P51957)",98%
"MAPKAPK5 (Homo sapiens, UniProt Q8IW41)",100%
"SGK2 (Homo sapiens, UniProt Q9HBY8)",100%
"Aurora kinase A (AURKA, Homo sapiens, UniProt O14965)",100%
"CAMKK2 (Homo sapiens, UniProt Q96RR4)",73%
"NEK6 (Homo sapiens, UniProt Q9HC98)",100%
"FLT3 (Homo sapiens, UniProt P36888, D835V)",100%
"CAMK2D (Homo sapiens, UniProt Q13557)",82%
"CDK14 (Homo sapiens, UniProt O94921)",89%
"CAMK2B (Homo sapiens, UniProt Q13554)",89%
"DSTYK (Homo sapiens, UniProt Q6XUX3)",69%
"TNNI3K (Homo sapiens, UniProt Q59H18)",100%
"CDK2 (Homo sapiens, UniProt P24941)",100%
"FLT3 (Homo sapiens, UniProt P36888, K663Q)",100%

# Set 4
# Cell line: HH
# Tested at: 2 µM
# Time: 48 h
# Relative to: untreated
SMILES,viability [%]
Oc1ccc(Nc2nc(-c3ccc(Cl)cc3)cs2)cc1,80.8
COc1cc(Nc2c(C#N)cnc3cc(OCCCN4CCN(C)CC4)c(OC)cc23)c(Cl)cc1Cl,103
CCc1cnn2c(NCc3ccc[n+]([O-])c3)cc(N3CCCC[C@H]3CCO)nc12,12.2
CCCCCCCCCCCCCCCCCCOP(=O)([O-])OC1CC[N+](C)(C)CC1,88.6
CCn1c(N)c(C(=O)NC)c(=O)c2ccc(C#C[C@@](C)(O)COC)nc21,95.9
COC(=O)Nc1ccc(-c2nc(N3CCOCC3)c3cnn(C4CCN(C(=O)OC)CC4)c3n2)cc1,72.8
Cc1cc(C)c(/C=C2\C(=O)Nc3ccccc32)[nH]1,98.2
CSc1cccc(Nc2ncc3cc(-c4c(Cl)cccc4Cl)c(=O)n(C)c3n2)c1,95.9
COc1ccc(-c2cc3c(C)nc(N)nc3n([C@H]3CC[C@H](OCCO)CC3)c2=O)cn1,43.8
O=c1cc(-c2cccc3c2Sc2ccccc2S3)oc(N2CCOCC2)c1,94.9

# For quick reference, copied from above (set 3):
target,remaining binding
"FLT3 (Homo sapiens, UniProt P36888, K663Q)",100%
"CAMK2D (Homo sapiens, UniProt Q13557)",82%
"SGK2 (Homo sapiens, UniProt Q9HBY8)",100%
"NEK4 (Homo sapiens, UniProt P51957)",98%
